Assay results pooled from the literature.
Each line is one published result; not all experiments were run side by side. Values joined by “and” are separate records of one study, mostly repeats; a detail may differ. Numbers after ± are the reported error. ≈ marks a conversion by molar mass, not a printed value.
UCHL1: Ubiquitin carboxyl-terminal hydrolase isozyme L1 (UCHL1, Homo sapiens, UniProt P09936)
Chain of UniProt P09936 (whole entry, looked up): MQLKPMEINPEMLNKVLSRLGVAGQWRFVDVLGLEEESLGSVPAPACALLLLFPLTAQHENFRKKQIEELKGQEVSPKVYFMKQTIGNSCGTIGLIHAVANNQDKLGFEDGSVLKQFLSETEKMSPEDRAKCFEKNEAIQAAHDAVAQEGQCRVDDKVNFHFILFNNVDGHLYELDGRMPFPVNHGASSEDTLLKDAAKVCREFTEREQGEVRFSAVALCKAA

Compound | target or system | assay | system | conditions | how to read | quantity | result
CN[C@H](CC(C)C)C(=O)N[C@H]1C(=O)N[C@@H](CC(N)=O)C(=O)N[C@H]2C(=O)N[C@H]3C(=O)N[C@H](C(=O)N[C@H](C(=O)O)c4cc(O)cc(O)c4-c4cc3ccc4O)[C@H](O)c3ccc(c(Cl)c3)Oc3cc2cc(c3O[C@@H]2O[C@H](CO)[C@@H](O)[C@H](O)[C@H]2O[C@H]2C[C@](C)(N)[C@H](O)[C@H](C)O2)Oc2ccc(cc2Cl)[C@H]1O | Pseudomonas aeruginosa | – | ATCC 47085 | 20 h | – | MBC | 1000 µg/mL (≈ 690 µM)
C[C@@H](O)[C@H]1C(=O)N2C(C(=O)O)=C(S[C@@H]3CN[C@H](C(=O)N(C)C)C3)[C@H](C)[C@H]12 | Pseudomonas aeruginosa | checkerboard | carbapenem-resistant | concentration not given, together with: anionic gold nanoparticle 8 µg/mL | baseline: MIC alone over combination | MIC fold reduction | 8 fold
C=C(C)C1CC=C(CN2CCN(Cc3ccccc3)CC2)CC1 (stereo not shown) | Trypanosoma cruzi | reporter translation, Renilla luciferase mRNA translation | cell-free extract | 40 µM | baseline: DMSO | inhibition | 2.8%
CC[C@H]1OC(=O)[C@H](C)[C@@H](O[C@H]2C[C@@](C)(OC)[C@@H](O)[C@H](C)O2)[C@H](C)[C@@H](O[C@@H]2O[C@H](C)C[C@H](N(C)C)[C@H]2O)[C@](C)(O)C[C@@H](C)C(=O)[C@H](C)[C@@H](O)[C@]1(C)O | Pseudomonas aeruginosa | quorum sensing | ATCC 10145-GFP | sub-MIC, 24 h, RPMI 1640, 10% FBS | baseline: untreated | GFP fluorescence reduction | 40 to 65%
COc1cccc(C(=O)C#Cc2ccc(F)c(F)c2)c1 | Pseudomonas aeruginosa | static biofilm | PA14 | 10 µM, 24 h, static | baseline: DMSO | biofilm formation | 83%
N=C(N)c1ccc(OCc2ccc(-c3ccccc3)cc2COc2ccc(C(=N)N)cc2)cc1 | Pseudomonas aeruginosa | – | ATCC 27853 | concentration not given, together with: rifampicin | – | MIC in combination | 6.25 µg/mL
CC(Cl)C(=O)NC1CCc2nc(-c3cc(F)ccc3F)cn2C1 (stereo not shown) | UCHL1 | covalent, intact protein LC-MS | – | 12.5 µM | – | labelling | 11.5%
O=C(NCCc1ccccc1)C(O)CO (stereo not shown) | Pseudomonas aeruginosa | crystal violet staining | – | 500 µg/mL, 24 h | baseline: untreated | residual biofilm | 43 ± 16%
COC(=O)[C@H](Cc1c[nH]c2ccccc12)NCc1cc2ccccc2nc1SC | Pseudomonas aeruginosa | – | – | 2 µg/mL, together with: pentamidine 100 µM | baseline: control | growth | 73.9%
COc1cc(C#CC(=O)c2ccc(Cl)cc2)ccc1O | Pseudomonas aeruginosa | static biofilm | PA14 | 10 µM, 24 h | baseline: DMSO | biofilm formation | 65%
O=C(NCc1ccccc1)C1COC2(CCCCC2)O1 (stereo not shown) | Pseudomonas aeruginosa | crystal violet staining | – | 500 µg/mL, 24 h | baseline: untreated | residual biofilm | 49 ± 5%
COc1nc(N)nc(Cl)n1 | UCHL1 | covalent, intact protein LC-MS | – | 12.5 µM | – | labelling | 27.6%
COc1ccc(C(=O)C#Cc2ccc(O)c(OC)c2)cc1 | Pseudomonas aeruginosa | static biofilm | PA14 | 10 µM, 24 h | baseline: DMSO | biofilm formation | 73%
CC[C@H](C)CCCCC(=O)N[C@@H](CCN)C(=O)N[C@H](C(=O)N[C@@H](CCN)C(=O)N[C@H]1CCNC(=O)[C@H]([C@@H](C)O)NC(=O)[C@H](CCN)NC(=O)[C@H](CCN)NC(=O)[C@H](CC(C)C)NC(=O)[C@@H](CC(C)C)NC(=O)[C@H](CCN)NC1=O)[C@@H](C)O | Pseudomonas aeruginosa | broth microdilution | ATCC 10145, cation-adjusted Mueller-Hinton broth | 18 to 20 h, 37 °C, 0.002% polysorbate 80 | – | MIC | 1 µg/mL (≈ 0.855 µM)
COc1cccc(C(=O)C#Cc2ccc(O)c(OC)c2)c1 | Pseudomonas aeruginosa | static biofilm | PA14 | 10 µM, 24 h, static | baseline: DMSO | biofilm formation | 65%
N=C(N)c1ccc(OCc2cc(Br)cc(COc3ccc(C(=N)N)cc3)c2)cc1 | Pseudomonas aeruginosa | – | ATCC 27853 | concentration not given, together with: rifampicin | – | MIC in combination | 25 µg/mL
C[C@@H](O)[C@H]1C(=O)N2C(C(=O)O)=C(SCCN=CN)C[C@H]12 | Pseudomonas aeruginosa | – | BAA-2797, mouse, peritonitis model, liver | intraperitoneal, 10 mg/kg single dose | – | bacterial load | 7.88 log10 CFU and 7.78 log10 CFU and 8.2 log10 CFU and 8.45 log10 CFU and 7.9 log10 CFU
COc1cc(C#CC(O)c2ccccc2)ccc1O (stereo not shown) | Pseudomonas aeruginosa | static biofilm | PA14 | 10 µM, 24 h | baseline: DMSO | biofilm formation | 51%
O=C(N[C@@H](Cc1ccccc1)C(=O)O)C1COC2(CCCCC2)OC1 | Pseudomonas aeruginosa | crystal violet staining | – | 500 µg/mL, 24 h | baseline: untreated | residual biofilm | 16 ± 3%
COc1cc(C#CC(=O)CC(C)C)ccc1O | Pseudomonas aeruginosa | biofilm formation | PA14 | static | – | IC50 | 17 µM
N=C(N)c1ccc(OCc2cc(COc3ccc(C(=N)N)cc3)cc(-c3ccccc3)c2)cc1 | Pseudomonas aeruginosa | – | ATCC 27853 | concentration not given, together with: rifampicin | – | MIC in combination | 25 µg/mL
N=C(N)c1ccc(OCCCCCOc2ccc(C(=N)N)cc2)cc1 | Pseudomonas aeruginosa | – | – | 100 µM | baseline: untreated | growth | 86.2%

For quick reference, copied from above:
Compound | target or system | assay | system | conditions | how to read | quantity | result
CN[C@H](CC(C)C)C(=O)N[C@H]1C(=O)N[C@@H](CC(N)=O)C(=O)N[C@H]2C(=O)N[C@H]3C(=O)N[C@H](C(=O)N[C@H](C(=O)O)c4cc(O)cc(O)c4-c4cc3ccc4O)[C@H](O)c3ccc(c(Cl)c3)Oc3cc2cc(c3O[C@@H]2O[C@H](CO)[C@@H](O)[C@H](O)[C@H]2O[C@H]2C[C@](C)(N)[C@H](O)[C@H](C)O2)Oc2ccc(cc2Cl)[C@H]1O | Pseudomonas aeruginosa | – | ATCC 47085 | 20 h | – | MBC | 1000 µg/mL (≈ 690 µM)
COC(=O)[C@H](Cc1c[nH]c2ccccc12)NCc1cc2ccccc2nc1SC | Pseudomonas aeruginosa | – | – | 2 µg/mL, together with: pentamidine 100 µM | baseline: control | growth | 73.9%
C=C(C)C1CC=C(CN2CCN(Cc3ccccc3)CC2)CC1 (stereo not shown) | Trypanosoma cruzi | reporter translation, Renilla luciferase mRNA translation | cell-free extract | 40 µM | baseline: DMSO | inhibition | 2.8%
